Results pooled from the literature.
Each numbered part is a random draw from the data of one study; scales do not carry over between parts. Positions count from the first letter of the parent shown.

Set 1
Target: Histone acetyltransferase KAT6A, winged helix 2, GST fusion (KAT6A, Homo sapiens, UniProt Q92794, residues 85-181)
Technique: protein binding microarray
Molecule type: double-stranded DNA, one strand shown
Sample: in vitro
Tested at: not given
Notes: 8-mer, flanks averaged, mean of 2 arrays, mostly near background
Relative to: not given
Direction: higher = stronger binding
Target sequence (chain): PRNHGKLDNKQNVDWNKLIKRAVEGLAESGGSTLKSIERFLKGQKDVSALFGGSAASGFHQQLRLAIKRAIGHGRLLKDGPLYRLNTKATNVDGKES
`CCGGCCGC` has an E-score of 0.289.
With `AAGGGGAG` the E-score was -0.0915.
`AGGCCCCC` has an E-score of 0.062.
With `CTCCTGTC` the E-score was 0.117.
`ACTCCGGG` gave an E-score of 0.0956.
`ACTATTGC` gave an E-score of -0.0982.
For `GCTGGCTA`, the E-score was -0.23.
With `AGAACCCT` the E-score was -0.13.

Set 2
Target: ABI1, truncated, D143A, DHFR fusion (Arabidopsis thaliana)
Technique: DHFR PCA, deep sequencing
Sample: yeast
Notes: methotrexate growth selection, single substitutions
Added: (+)-ABA 2500 µM
Relative to: wild-type fitted maximum
Direction: higher = stronger binding
Starting sequence: PYL1, truncated, DHFR fusion (Arabidopsis thaliana); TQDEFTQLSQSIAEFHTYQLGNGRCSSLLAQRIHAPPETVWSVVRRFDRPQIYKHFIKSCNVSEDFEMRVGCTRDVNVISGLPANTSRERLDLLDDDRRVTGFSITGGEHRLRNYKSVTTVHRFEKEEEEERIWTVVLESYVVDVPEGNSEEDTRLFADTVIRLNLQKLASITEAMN
For `L138I`, “relative binding score” read 99.4%.
Under “relative binding score”, `Q19D` is recorded as 103%.
`K58I` — result for “relative binding score”: 82.2%.
Under “relative binding score”, `I12V` is recorded as 90.5%.
Under “relative binding score”, `V62A` is recorded as 94.4%.
Under “relative binding score”, `P50Q` is recorded as 31.5%.
Under “relative binding score”, `L20H` is recorded as 101%.
`N165V` — result for “relative binding score”: 6.78%.

Single results of other studies
RAD50: RAD50 (Homo sapiens, UniProt Q92878)
Under interaction screen, `ARID1A (Homo sapiens, UniProt O14497)` is recorded as “cross-linked” (SMARCD1 (Homo sapiens, UniProt Q96GM5); cross-linking MS; hits only).
`COc1ccc(C2(CNC(=O)C(F)(F)F)CCCCC2)cc1` gave a remaining compound of 3.54% (human, microsomes or S9; 2 µM, 0.5 h).
Under cross-linked residues, `USP48 (Homo sapiens, UniProt Q86UV5)` is recorded as “K231 to S447” (RAD50; cross-linking MS; cell fractions; added: DSSO).
For `HSP90B1 (Homo sapiens, UniProt P14625)`, cross-linked residues read “K597 to S389” (RAD50; cross-linking MS; cell fractions; added: DSSO).

A few entries again (single results of other studies):
Under interaction screen, `ARID1A (Homo sapiens, UniProt O14497)` is recorded as “cross-linked” (SMARCD1 (Homo sapiens, UniProt Q96GM5); cross-linking MS; hits only).
`COc1ccc(C2(CNC(=O)C(F)(F)F)CCCCC2)cc1` gave a remaining compound of 3.54% (human, microsomes or S9; 2 µM, 0.5 h).
